# Measurements from different studies.
# Protocols differ between the studies behind these lines. Values joined by “and” are separate records of one study, mostly repeats; a detail may differ. ± marks the error that the study gave.
# Chain of UniProt Q9Y570 (whole entry, looked up): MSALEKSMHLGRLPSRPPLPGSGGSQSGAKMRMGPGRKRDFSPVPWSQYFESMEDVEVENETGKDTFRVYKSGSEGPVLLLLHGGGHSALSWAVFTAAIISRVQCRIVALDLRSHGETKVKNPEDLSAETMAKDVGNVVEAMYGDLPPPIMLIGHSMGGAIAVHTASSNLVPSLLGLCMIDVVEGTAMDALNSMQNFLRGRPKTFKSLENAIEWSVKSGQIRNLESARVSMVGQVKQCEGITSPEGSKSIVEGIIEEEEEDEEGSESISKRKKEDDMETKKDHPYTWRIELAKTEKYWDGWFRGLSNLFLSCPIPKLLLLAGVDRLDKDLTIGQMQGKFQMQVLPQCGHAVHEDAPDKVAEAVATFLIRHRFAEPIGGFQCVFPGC
# Chain of UniProt P32238 (whole entry, looked up): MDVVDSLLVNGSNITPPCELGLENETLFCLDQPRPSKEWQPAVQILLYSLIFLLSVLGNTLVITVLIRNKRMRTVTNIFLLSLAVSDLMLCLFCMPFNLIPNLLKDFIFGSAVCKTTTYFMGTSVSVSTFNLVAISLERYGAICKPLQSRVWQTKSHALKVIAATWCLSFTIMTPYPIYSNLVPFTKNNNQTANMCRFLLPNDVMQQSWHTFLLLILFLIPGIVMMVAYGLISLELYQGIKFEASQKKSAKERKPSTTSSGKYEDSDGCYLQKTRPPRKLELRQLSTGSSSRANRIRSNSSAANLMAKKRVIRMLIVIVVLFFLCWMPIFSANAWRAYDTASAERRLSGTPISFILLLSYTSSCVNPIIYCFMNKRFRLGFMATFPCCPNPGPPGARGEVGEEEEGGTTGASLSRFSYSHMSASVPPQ
# Chain of UniProt Q15746 (whole entry, looked up): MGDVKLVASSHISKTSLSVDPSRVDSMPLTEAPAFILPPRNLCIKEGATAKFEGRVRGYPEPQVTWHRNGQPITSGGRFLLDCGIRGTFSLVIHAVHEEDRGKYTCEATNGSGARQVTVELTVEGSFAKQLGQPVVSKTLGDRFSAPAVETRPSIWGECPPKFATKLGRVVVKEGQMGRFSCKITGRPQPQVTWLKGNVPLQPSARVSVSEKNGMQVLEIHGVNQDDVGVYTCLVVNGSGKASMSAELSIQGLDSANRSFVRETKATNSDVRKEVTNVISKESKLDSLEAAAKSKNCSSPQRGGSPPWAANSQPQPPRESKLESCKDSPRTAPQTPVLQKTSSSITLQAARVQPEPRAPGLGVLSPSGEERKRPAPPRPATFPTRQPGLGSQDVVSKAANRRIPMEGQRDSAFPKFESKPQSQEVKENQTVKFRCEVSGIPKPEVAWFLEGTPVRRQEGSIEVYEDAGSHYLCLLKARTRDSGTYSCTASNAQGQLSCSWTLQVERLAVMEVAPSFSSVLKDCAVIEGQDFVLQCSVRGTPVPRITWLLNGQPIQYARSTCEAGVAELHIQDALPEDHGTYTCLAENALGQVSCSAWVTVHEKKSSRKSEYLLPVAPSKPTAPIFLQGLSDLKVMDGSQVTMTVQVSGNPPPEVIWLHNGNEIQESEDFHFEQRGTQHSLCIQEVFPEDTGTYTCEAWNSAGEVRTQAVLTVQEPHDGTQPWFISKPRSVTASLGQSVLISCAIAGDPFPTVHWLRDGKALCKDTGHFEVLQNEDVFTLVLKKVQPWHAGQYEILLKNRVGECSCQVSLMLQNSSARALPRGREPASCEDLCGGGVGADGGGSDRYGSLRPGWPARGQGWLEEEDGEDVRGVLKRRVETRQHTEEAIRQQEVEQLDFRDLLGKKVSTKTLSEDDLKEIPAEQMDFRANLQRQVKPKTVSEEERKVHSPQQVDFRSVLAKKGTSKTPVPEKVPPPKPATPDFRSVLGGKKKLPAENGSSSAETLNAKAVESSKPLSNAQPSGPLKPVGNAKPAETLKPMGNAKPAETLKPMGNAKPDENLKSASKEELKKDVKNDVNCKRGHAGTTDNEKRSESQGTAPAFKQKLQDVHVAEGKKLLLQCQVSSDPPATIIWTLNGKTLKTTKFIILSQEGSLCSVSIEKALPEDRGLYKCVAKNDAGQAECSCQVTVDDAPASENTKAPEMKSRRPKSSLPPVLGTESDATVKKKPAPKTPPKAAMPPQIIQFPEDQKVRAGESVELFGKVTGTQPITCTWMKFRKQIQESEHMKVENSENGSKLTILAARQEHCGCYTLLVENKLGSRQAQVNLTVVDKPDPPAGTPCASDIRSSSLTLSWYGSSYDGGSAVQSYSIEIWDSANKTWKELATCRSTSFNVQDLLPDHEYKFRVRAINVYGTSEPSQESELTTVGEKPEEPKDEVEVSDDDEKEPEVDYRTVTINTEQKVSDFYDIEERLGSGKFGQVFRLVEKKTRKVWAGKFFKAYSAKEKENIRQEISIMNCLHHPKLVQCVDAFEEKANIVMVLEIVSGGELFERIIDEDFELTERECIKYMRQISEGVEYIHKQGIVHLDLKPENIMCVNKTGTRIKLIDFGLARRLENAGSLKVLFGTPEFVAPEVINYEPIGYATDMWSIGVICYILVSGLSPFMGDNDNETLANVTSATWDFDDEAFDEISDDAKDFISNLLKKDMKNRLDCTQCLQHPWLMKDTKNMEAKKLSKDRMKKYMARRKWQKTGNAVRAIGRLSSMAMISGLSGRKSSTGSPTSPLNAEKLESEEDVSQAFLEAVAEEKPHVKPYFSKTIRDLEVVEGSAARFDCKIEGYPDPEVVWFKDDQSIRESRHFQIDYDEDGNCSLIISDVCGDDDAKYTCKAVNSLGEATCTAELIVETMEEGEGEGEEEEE
# Chain of UniProt P17948 (whole entry, looked up): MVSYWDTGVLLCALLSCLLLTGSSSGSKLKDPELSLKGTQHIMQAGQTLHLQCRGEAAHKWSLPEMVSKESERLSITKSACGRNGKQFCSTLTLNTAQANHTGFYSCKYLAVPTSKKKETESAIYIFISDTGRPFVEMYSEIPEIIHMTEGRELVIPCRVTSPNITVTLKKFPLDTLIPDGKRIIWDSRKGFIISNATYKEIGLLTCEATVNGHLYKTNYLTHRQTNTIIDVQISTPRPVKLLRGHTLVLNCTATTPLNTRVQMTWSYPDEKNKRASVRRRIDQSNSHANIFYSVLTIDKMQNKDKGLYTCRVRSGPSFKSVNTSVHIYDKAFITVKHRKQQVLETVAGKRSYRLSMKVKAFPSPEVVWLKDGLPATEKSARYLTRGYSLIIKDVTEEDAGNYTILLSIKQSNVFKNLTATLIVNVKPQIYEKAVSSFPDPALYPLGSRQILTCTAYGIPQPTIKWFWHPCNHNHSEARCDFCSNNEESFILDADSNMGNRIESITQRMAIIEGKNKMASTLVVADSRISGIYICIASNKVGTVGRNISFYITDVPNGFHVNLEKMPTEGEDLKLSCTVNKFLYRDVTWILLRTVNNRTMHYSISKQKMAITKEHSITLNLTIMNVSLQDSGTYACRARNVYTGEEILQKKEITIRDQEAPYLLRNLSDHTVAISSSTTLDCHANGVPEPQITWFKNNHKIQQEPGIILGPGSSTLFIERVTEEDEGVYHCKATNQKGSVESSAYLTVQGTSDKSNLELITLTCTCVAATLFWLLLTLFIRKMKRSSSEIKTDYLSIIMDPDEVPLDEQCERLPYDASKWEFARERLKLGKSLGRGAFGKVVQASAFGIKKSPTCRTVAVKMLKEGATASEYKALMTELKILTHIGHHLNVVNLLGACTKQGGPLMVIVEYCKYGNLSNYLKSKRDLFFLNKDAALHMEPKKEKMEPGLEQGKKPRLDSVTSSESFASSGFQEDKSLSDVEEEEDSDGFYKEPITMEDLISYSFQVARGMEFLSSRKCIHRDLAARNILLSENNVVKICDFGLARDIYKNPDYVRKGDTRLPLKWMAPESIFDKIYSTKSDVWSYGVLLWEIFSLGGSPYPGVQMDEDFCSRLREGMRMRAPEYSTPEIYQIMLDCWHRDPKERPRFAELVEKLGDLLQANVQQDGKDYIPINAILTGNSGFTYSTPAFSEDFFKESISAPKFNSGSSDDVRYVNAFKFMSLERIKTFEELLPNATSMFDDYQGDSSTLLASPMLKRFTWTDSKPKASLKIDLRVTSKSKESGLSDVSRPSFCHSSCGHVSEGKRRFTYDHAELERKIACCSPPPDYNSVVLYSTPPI
Structure (SMILES),tested on,test,test system,conditions,how to read,endpoint,value
COc1cc(CCC[P+](c2ccccc2)(c2ccccc2)c2ccccc2)c(OC)c2c1OCO2.[I-],NCI-H522,SRB,,,,LC50,> -4 log M
O=c1[nH]cc(F)c(=O)[nH]1,influenza A virus H1N1,"viral replication, NP ELISA",MDCK,,,IC90,147 ± 60.4 µM
COc1cc(NC(=O)Cn2ccc3cc(F)c(-c4cnn(C)c4)cc32)cc(OC)c1OC,Plasmodium falciparum,,Dd2 PfATP4 D425E,72 h,reference: mutant over parental,EC50 fold shift,4 fold
CCC(CC)O[C@@H]1C=C(C(=O)O)C[C@H](N)[C@H]1NC(C)=O,influenza A virus A/PR/8/34 (H1N1),,,"concentration not given, pre-treatment",,HA titre reduction,8 log units
C[C@@H](O)[C@@H](CO)NC(=O)[C@@H](CCCNC(=N)N)NC(=O)[C@@H]1CCCN1C(=O)[C@@H]1CSSC[C@H](NC(=O)[C@H](Cc2ccccc2)NC(=O)CN2CCN(CC(=O)O)CCN(CC(=O)O)CCN(CC(=O)O)CC2)C(=O)N[C@@H](Cc2ccc(O)cc2)C(=O)N[C@@H](Cc2ccccc2)C(=O)N[C@@H](CCC(N)=O)C(=O)N[C@@H](CC(N)=O)C(=O)N1 [gallium-68 labelled],,,"healthy Wistar rat, pancreas","intravenous, 8 MBq, 60 min, individual animals",,tissue uptake,0.15 %ID/g
COc1ccc(N2C(=O)N(c3c(C)cccc3Cl)Cc3cnc(Nc4ccc(C5CCN(C)CC5)cc4OC)nc32)nc1,"FLT1 (Homo sapiens, UniProt P17948)",kinase activity,,0.5 µM,,inhibition,26%
CC(N)C12CC3CC(CC(C3)C1)C2 (stereo not drawn),influenza A virus H1N1,"viral cytopathic effect, MTS",MDCK,,,EC50,20.5 µM
O=C(c1ccc(Cl)cc1)N1CCN2C(=O)N(OC(=O)N3CCOc4ccccc43)C(=O)C2C1 (stereo not drawn),"Protein phosphatase methylesterase 1 (Homo sapiens, UniProt Q9Y570)",MS-based ABPP,SW-620 conditioned medium,"10 µM, 1 h, 37 °C","reference: compound over DMSO, lower = more inhibition",median protein ratio,1
C[C@H]1CN(c2n[nH]c3nc(N[C@H]4CC[C@H](NS(=O)(=O)CCC(F)(F)F)CC4)ncc23)CCO1,"MYLK (Homo sapiens, UniProt Q15746)","inhibitor, Kinobeads competition profiling",,0.16 µM,reference: vehicle,relative abundance,1.07
NC12CC3CC(CC(C3)C1)C2,influenza B virus,"viral cytopathic effect, MTS",MDCK,,,EC50,> 200 µM
CCCCCCCCCCCCCCCCCC[N+](C)(C)Cc1ccc(C[N+](C)(C)CCCCCCCCCCCCCCCCCC)cc1.[Br-].[Br-],influenza A virus A/PR/8/34 (H1N1),,,"concentration not given, pre-treatment",,HA titre reduction,3.5 ± 0.5 log units
CC(=O)N[C@H]1[C@H]([C@H](O)[C@H](O)CO)OC(C(=O)O)=C[C@@H]1N=C(N)N,influenza A virus H1N1,"viral cytopathic effect, MTS",MDCK,,,EC50,0.8 µM
[H]/N=C(/N)N[C@H]1[C@H](O)[C@@H](O)[C@H](O[C@@H]2O[C@@H](C)[C@](O)(C=O)[C@H]2O[C@@H]2O[C@@H](CO)[C@H](O)[C@@H](O)[C@@H]2NC)[C@@H](N/C(N)=N\[H])[C@@H]1O,Mycobacterium ulcerans,,ATCC 35840,,,MIC,0.1 to 0.4 µg/mL
COc1cc(Nc2ncc(F)c(Nc3ccc4c(n3)NC(=O)C(C)(C)O4)n2)cc(OC)c1OC,"CCKAR (Homo sapiens, UniProt P32238)",,,,,IC50,> 10 µM
COc1c(CCC[P+](c2ccccc2)(c2ccccc2)c2ccccc2)cc2c(c1OC)OCO2.[I-],NCI-H522,SRB,,,,TGI,-4.96 log M
CS(=O)(=O)Nc1ncn(-c2cc(F)c(COc3ccc(OS(=O)(=O)F)cc3)c(F)c2)n1,Mycobacterium tuberculosis,,"drug-resistant clinical isolate, lineage 4",,,MIC,0.02 µM
CCCCCCCCCCCC[N+](C)(C)CCCCCCCCCC[N+](C)(C)CCCCCCCCCCCC.[Br-].[Br-],influenza A virus A/PR/8/34 (H1N1),,,"concentration not given, pre-treatment",,protection,40.9 ± 18.4%
CC[C@H](C)[C@H](NC(=O)[C@H](Cc1ccccc1)NC(=O)[C@H](CCC(=O)O)NC(=O)[C@H](CCCNC(=N)N)NC(=O)[C@H](C)NC(=O)[C@H](C)NC(=O)[C@H](CCC(N)=O)NC(=O)[C@H](CCC(=O)O)NC(=O)[C@H](CCC(=O)O)NC(=O)[C@H](CC(C)C)NC(=O)[C@H](Cc1ccc(O)cc1)NC(=O)[C@H](CO)NC(=O)[C@H](CO)NC(=O)[C@@H](NC(=O)[C@H](CC(=O)O)NC(=O)[C@H](CO)NC(=O)[C@@H](NC(=O)[C@H](Cc1ccccc1)NC(=O)[C@@H](NC(=O)CNC(=O)[C@H](CCC(=O)O)NC(=O)[C@H](C)NC(=O)CCc1c[nH]cn1)[C@@H](C)O)[C@@H](C)O)C(C)C)C(=O)N[C@@H](C)C(=O)N[C@@H](Cc1c[nH]c2ccccc12)C(=O)N[C@@H](CC(C)C)C(=O)N[C@H](C(=O)N[C@@H](CCCNC(=N)N)C(=O)NCC(=O)N[C@@H](CCCNC(=N)N)C(=O)N[C@@H](CCCCNC(=O)COCCOCCNC(=O)COCCOCCNC(=O)CC[C@H](NC(=O)CCCCCCCCCCCCCCCCC(=O)O)C(=O)O)C(=O)NCC(=O)NCC(=O)N[C@@H](CO)C(=O)N[C@@H](CCCCNc1c(NCCCCCN(O)C(=O)CCC(=O)NCCCCCN(O)C(=O)CCC(=O)NCCCCCN(O)C(C)=O)c(=O)c1=O)C(=O)O)C(C)C [zirconium-89 labelled],,gamma counting,"rat, skin at injection site","intravenous, 3 nmol/kg, 72 h",,tissue uptake,0.1 %ID/g
O=c1ccn([C@@H]2O[C@](F)(CO)[C@@H](O)[C@H]2O)c(=O)[nH]1,human respiratory syncytial virus,,recombinant reporter virus,"concentration not given, scale 0 to 100, with: adenosine 300 µM",,normalized viral replication,0
Sc1ncnc2nc[nH]c12,influenza A virus H1N1,"viral replication, NP ELISA",MDCK,,,IC90,29.8 ± 13 µM
CCCCCCCCCCCC[N+](C)(C)CCCNCCC[N+](C)(C)CCCCCCCCCCCC.[Br-].[Br-],influenza A virus A/PR/8/34 (H1N1),,,"concentration not given, co-treatment",,protection,65.4 ± 0.9%
CCOC(=O)C1=C[C@@H](OC(CC)CC)[C@H](NC(C)=O)[C@@H](N)C1,influenza A virus H1N1,,"rat, plasma of treated rats",30 mg/kg,reference: water-treated rats,plaque reduction,61.6%
OC(Cn1cncn1)(Cn1cncn1)c1ccc(F)cc1F,Saccharomyces cerevisiae,cell growth,"Pdr5 deleted, Cdr1 overexpressed",2^4.907 µg/mL,,OD600,0.967 and 0.91 and 0.926
O=c1[nH]c(=O)n([C@H]2C[C@H](O)[C@@H](CO)O2)cc1F,influenza A virus H1N1,"viral replication, NP ELISA",MDCK,,,IC90,86 ± 21.4 µM
CCCCCCCCCCCCCCCC[N+](C)(C)CCCCCCCCCCCC[N+](C)(C)CCCCCCCCCCCCCCCC.[Br-].[Br-],influenza A virus A/PR/8/34 (H1N1),,,"concentration not given, pre-treatment",,HA titre reduction,1.5 ± 0.5 log units
CC[C@H](C)[C@H](NC(=O)[C@H](C)NC(=O)[C@H](CCCCN)NC(=O)[C@H](CC(C)C)NC(=O)[C@H](C)NC(=O)[C@@H](NC(=O)[C@H](Cc1c[nH]cn1)NC(=O)[C@H](CC(C)C)NC(=O)[C@@H](NC(=O)[C@@H](NC(=O)[C@H](CCCCN)NC(=O)[C@H](C)NC(=O)[C@H](C)NC(=O)[C@H](CO)NC(=O)[C@H](CCCCN)NC(=O)[C@H](Cc1ccccc1)NC(=O)[C@@H](NC(=O)[C@H](CCCCN)NC(=O)[C@H](CC(C)C)NC(=O)[C@H](Cc1ccccc1)NC(=O)[C@H](CO)NC(=O)[C@H](CCCCN)NC(=O)[C@H](Cc1c[nH]c2ccccc12)NC(=O)[C@H](CCCCN)NC(C)=O)[C@@H](C)O)[C@@H](C)O)C(C)C)[C@@H](C)O)C(=O)N[C@@H](CO)C(=O)N[C@@H](CO)C(N)=O,Enterococcus faecalis,,,40 strains,,MBC90,> 64 µg/mL
CC[C@H](C)[C@@H]1NC(=O)[C@@H]2CCCN2C(=O)[C@H](CC(C)C)NC(=O)[C@H](CC(C)C)NC(=O)CNC(=O)[C@@H](NC(=O)[C@@H](NC(=O)[C@H](CC(=O)O)NC(=O)CNC(=O)[C@@H](NC(=O)[C@H](C)NC(=O)CNC(=O)[C@H](CCCCN)NC(=O)[C@H](CC(C)C)NC(=O)[C@H](CC(C)C)NC(=O)[C@H](CCCCN)NC(=O)CNC(=O)[C@@H](NC(=O)[C@@H](N)CC(C)C)C(C)C)C(C)C)C(C)C)CSSC[C@@H](C(=O)O)NC1=O,,"RNA-seq, measured: Psd4","mouse, traumatic brain injury model, frontal cortex and hippocampus",dose not given,reference: TBI alone,log2 fold change,-2.28
CCCCCCCCCCCCCCCC[N+](C)(C)CCCCCCCCCC[N+](C)(C)CCCCCCCCCCCCCCCC.[Br-].[Br-],influenza A virus A/PR/8/34 (H1N1),,,"concentration not given, pre-treatment",,protection,55.4 ± 11.4%
[Ca+2],Halyomorpha halys,"outward current, inhibitor, electrophysiology",,"1 mM, C-terminal deletion",,inhibition,13.6%
COc1cc2c(Oc3ccc4[nH]c(C)cc4c3F)ccnc2cc1OCC1(N)CC1,,,paediatric recurrent refractory sarcoma,12 mg,,grade 1 or 2 blurred vision,9.1%
Cn1c(=O)ccc2ccc(F)c(CCNC[C@H]3CN(c4cnc5c(n4)NC(=O)CO5)C(=O)O3)c21,Burkholderia gladioli,,,,,MIC50,0.06 µg/mL
Oc1c(Br)cc(Br)cc1-c1[nH]c(Br)c(Br)c1Br,Vibrio cholerae,,El Tor,,,MIC,8 µM
CCCCCCCCCCCCCCCC[N+](C)(C)Cc1ccc(C[N+](C)(C)CCCCCCCCCCCCCCCC)cc1.[Br-].[Br-],influenza A virus A/PR/8/34 (H1N1),,,"concentration not given, post-treatment",,protection,70.7 ± 5.2%
C=C(CN(C(=O)c1c(C(F)F)nn(C)c1F)C1CC1)c1ccc(Cl)cc1Cl,Fusarium pseudograminearum,spore germination,,"12 h, 28 °C",,EC50,0.071 µg/mL
OC(Cn1cncn1)(Cn1cncn1)c1ccc(F)cc1F,Fusarium oxysporum,broth microdilution,LM 5634,50% inhibition endpoint,,MIC,32 µg/mL
O=C1c2c(O)c(=O)ccn2N([C@@H]2c3ccccc3SCc3c2ccc(F)c3F)[C@@H]2COCCN12,influenza A virus H1N1,,"A/WSN/33, BALB/c mice, lung","subcutaneous, 0.5 mg/kg every 6 h, 24 h",,lung virus titre,2 log10 TCID50/mL and 3 log10 TCID50/mL and 2.67 log10 TCID50/mL
Oc1c(Cl)cc(Cl)cc1-c1[nH]c(Cl)c(Cl)c1Cl,Vibrio cholerae,,El Tor,,,MIC,4 µM
N=C(N)NCCC[C@H](NC(=O)[C@@H](Cc1ccccc1)NC(=O)[C@H](Cc1c[nH]cn1)NC(=O)CCCc1ccccc1)C(=O)N[C@@H](Cc1c[nH]c2ccccc12)C(=O)NCC(=O)N[C@@H](CCCCNC(=O)CCCCCNC(=O)CN1CCN(CC(=O)O)CCN(CC(=O)O)CCN(CC(=O)O)CC1)C(N)=O [actinium-225 labelled],,five-compartment model fit,"SCID mice, A-375 and A-375/MC1R xenografts",,,tumour uptake rate constant (kti),0.0031 h⁻¹
NC(=O)c1ncn([C@@H]2O[C@H](CO)[C@@H](O)[C@H]2O)n1,influenza A virus H1N1,"viral cytopathic effect, MTS",MDCK,,,EC50,8.1 µM

# Repeated from above:
Structure (SMILES),tested on,test,test system,conditions,how to read,endpoint,value
CCCCCCCCCCCCCCCC[N+](C)(C)CCCCCCCCCC[N+](C)(C)CCCCCCCCCCCCCCCC.[Br-].[Br-],influenza A virus A/PR/8/34 (H1N1),,,"concentration not given, pre-treatment",,protection,55.4 ± 11.4%
[Ca+2],Halyomorpha halys,"outward current, inhibitor, electrophysiology",,"1 mM, C-terminal deletion",,inhibition,13.6%
COc1cc2c(Oc3ccc4[nH]c(C)cc4c3F)ccnc2cc1OCC1(N)CC1,,,paediatric recurrent refractory sarcoma,12 mg,,grade 1 or 2 blurred vision,9.1%
Cn1c(=O)ccc2ccc(F)c(CCNC[C@H]3CN(c4cnc5c(n4)NC(=O)CO5)C(=O)O3)c21,Burkholderia gladioli,,,,,MIC50,0.06 µg/mL
